Assay results from different studies.
Each line is one published result; not all experiments were run side by side. ± marks the error that the study gave.

CC[C@H](C)[C@H](NC(=O)[C@H](CCCNC(=N)N)NC(=O)[C@H](CO)NC(=O)[C@H](CC(C)C)NC(=O)[C@H](Cc1ccccc1)NC(=O)[C@H](Cc1ccccc1)NC(=O)[C@@H](N)Cc1ccccc1)C(=O)N[C@@H](Cc1ccccc1)C(N)=O
retention time (reverse-phase HPLC, C18; acetonitrile gradient 5-95%, 0.1% TFA): 14.3 min

C[C@H](NC(=O)[C@H](CCCNC(=N)N)NC(=O)[C@H](Cc1c[nH]c2ccccc12)NC(=O)[C@H](CCC(N)=O)NC(=O)[C@H](Cc1c[nH]c2ccccc12)NC(=O)[C@@H](N)CCCNC(=N)N)C(=O)N[C@@H](CCC(N)=O)C(=O)N[C@@H](Cc1c[nH]c2ccccc12)C(=O)N[C@@H](CCCNC(=N)N)C(N)=O
retention time (RP-HPLC C18; hydrophobicity measure): 5.6 min

CC[C@H](C)[C@H](NC(=O)[C@H](C)NC(=O)[C@H](CCCCN)NC(=O)[C@H](CC(C)C)NC(=O)[C@H](C)NC(=O)[C@@H](NC(=O)[C@H](Cc1c[nH]cn1)NC(=O)[C@H](CC(C)C)NC(=O)[C@@H](NC(=O)[C@@H](NC(=O)[C@H](CCCCN)NC(=O)[C@H](CCCCN)NC(=O)[C@H](C)NC(=O)[C@H](CO)NC(=O)[C@H](CCCCN)NC(=O)[C@H](Cc1ccccc1)NC(=O)[C@@H](NC(=O)[C@H](CCCCN)NC(=O)[C@H](CC(C)C)NC(=O)[C@H](Cc1ccccc1)NC(=O)[C@H](CO)NC(=O)[C@H](CCCCN)NC(=O)[C@H](Cc1c[nH]c2ccccc12)NC(=O)[C@H](CCCCN)NC(C)=O)[C@@H](C)O)[C@@H](C)O)C(C)C)[C@@H](C)O)C(=O)N[C@@H](CO)C(=O)N[C@@H](CO)C(N)=O
retention time (RP-HPLC; Zorbax 300 SB-C8 column; 30 °C): 30.3 min

CCCC(=O)N[C@@H](Cc1ccccc1)C(=O)N[C@H](C(=O)NCC(=O)N[C@H](C(=O)N[C@@H](CC(C)C)C(=O)N[C@H](C(=O)N1CCC[C@H]1C(=O)N[C@@H](CC(C)C)C(=O)N[C@@H](C)C(=O)N[C@@H](CC(C)C)C(=O)NCC(=O)N[C@@H](C)C(=O)N[C@@H](CC(C)C)C(=O)N[C@H](C(=O)N[C@@H](CCCCN)C(=O)N[C@@H](CC(C)C)C(=O)N[C@@H](Cc1ccccc1)C(=O)N[C@@H](CCCCN)C(N)=O)[C@@H](C)O)[C@@H](C)CC)[C@@H](C)O)[C@@H](C)CC
retention time (reversed-phase HPLC; hydrophobicity measure): 11.8 min

CC(=O)N[C@H](CCCCN)C(=O)N[C@H](CC(C)C)C(=O)N[C@@H](CCN)C(=O)N[C@H](CO)C(=O)N[C@H](CC(C)C)C(=O)N[C@H](CC(C)C)C(=O)N[C@@H](CCN)C(=O)N[C@@H](C(=O)N[C@H](CC(C)C)C(=O)N[C@H](CO)C(=O)N[C@@H](CCN)C(=O)N[C@H](C)C(=O)N[C@H](C)C(=O)N[C@H](C)C(=O)N[C@H](C)C(=O)N[C@H](C)C(=O)N[C@H](CC(C)C)C(=O)N[C@@H](CCN)C(=O)N[C@@H](C(=O)N[C@H](CC(C)C)C(=O)N[C@H](CC(C)C)C(=O)N[C@@H](CCN)C(=O)N[C@H](C)C(=O)N[C@H](CC(C)C)C(=O)N[C@H](CO)C(=O)N[C@@H](CCN)C(N)=O)[C@H](C)O)[C@H](C)O
retention time (RP-HPLC C8; pH 2, 25 °C, hydrophobicity measure): 158 min

Ac-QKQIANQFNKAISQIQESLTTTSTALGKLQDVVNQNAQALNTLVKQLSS-NH2 (N-acetyl, C-amide)
retention time (size-exclusion HPLC; phosphate buffer 50 mM, NaCl 100 mM; 0.2 mM, oligomerization state): 43.2 min

CCCCCCCCCCCCCCCCCC(=O)N[C@@H](Cc1ccccc1)C(=O)N[C@H](C(=O)NCC(=O)N[C@H](C(=O)N[C@@H](CC(C)C)C(=O)N[C@H](C(=O)N1CCC[C@H]1C(=O)N[C@@H](CC(C)C)C(=O)N[C@@H](C)C(=O)N[C@@H](CC(C)C)C(=O)NCC(=O)N[C@@H](C)C(=O)N[C@@H](CC(C)C)C(=O)N[C@H](C(=O)N[C@@H](CCCCN)C(=O)N[C@@H](CC(C)C)C(=O)N[C@@H](Cc1ccccc1)C(=O)N[C@@H](CCCCN)C(N)=O)[C@@H](C)O)[C@@H](C)CC)[C@@H](C)O)[C@@H](C)CC
retention time (reversed-phase HPLC; hydrophobicity measure): 13.2 min

CC(=O)N[C@H](CCCCN)C(=O)N[C@H](CC(C)C)C(=O)N[C@@H](CN)C(=O)N[C@H](CO)C(=O)N[C@H](CC(C)C)C(=O)N[C@H](CC(C)C)C(=O)N[C@@H](CN)C(=O)N[C@@H](C(=O)N[C@H](CC(C)C)C(=O)N[C@H](CO)C(=O)N[C@@H](CN)C(=O)N[C@H](C)C(=O)N[C@H](C)C(=O)N[C@H](C)C(=O)N[C@H](C)C(=O)N[C@H](C)C(=O)N[C@H](CC(C)C)C(=O)N[C@@H](CN)C(=O)N[C@@H](C(=O)N[C@H](CC(C)C)C(=O)N[C@H](CC(C)C)C(=O)N[C@@H](CN)C(=O)N[C@H](C)C(=O)N[C@H](CC(C)C)C(=O)N[C@H](CO)C(=O)N[C@@H](CN)C(N)=O)[C@H](C)O)[C@H](C)O
retention time (RP-HPLC C8; pH 2, 25 °C, hydrophobicity measure): 172 min

CC[C@H](C)[C@@H]1NC(=O)[C@@H]2CSSC[C@H](NC(=O)[C@@H](NC(=O)CN)[C@@H](C)O)C(=O)N[C@@H](CC(N)=O)C(=O)N[C@@H]([C@@H](C)O)C(=O)N3CCC[C@H]3C(=O)NCC(=O)N[C@H]3CSSC[C@H](NC(=O)[C@H](CCSC)NC(=O)[C@H](CC(C)C)NC(=O)[C@H](CCCNC(=N)N)NC(=O)CNC(=O)CNC(=O)[C@H](CC(=O)O)NC1=O)C(=O)NCC(=O)N[C@@H](CCC(=O)O)C(=O)N[C@@H]([C@@H](C)O)C(=O)N[C@H](C(=O)N[C@H](C(=O)NCC(=O)O)C(C)C)CSSC[C@H](NC(=O)[C@H]([C@@H](C)O)NC3=O)C(=O)N[C@@H](CO)C(=O)N[C@@H](Cc1c[nH]c3ccccc13)C(=O)N1CCC[C@H]1C(=O)N[C@@H](C(C)C)C(=O)N2
retention time (reversed-phase HPLC C18; acetonitrile gradient 5 to 51% over 36 min): 27 min

CC[C@H](C)[C@H](NC(=O)[C@H](CCCCN)NC(=O)[C@H](CCCCN)NC(=O)[C@@H](NC(=O)[C@@H](NC(=O)[C@H](CC(=O)O)NC(=O)[C@H](Cc1ccccc1)NC(=O)[C@H](CC(C)C)NC(=O)CN)[C@@H](C)CC)[C@@H](C)CC)C(=O)N[C@@H](C)C(=O)N[C@@H](CCC(=O)O)C(=O)N[C@@H](CO)C(=O)N[C@@H](Cc1ccccc1)C(N)=O
retention time (RP-HPLC C18; hydrophobicity): 23.93 ± 0.01 min

Some of these lines once more:
CC[C@H](C)[C@@H]1NC(=O)[C@@H]2CSSC[C@H](NC(=O)[C@@H](NC(=O)CN)[C@@H](C)O)C(=O)N[C@@H](CC(N)=O)C(=O)N[C@@H]([C@@H](C)O)C(=O)N3CCC[C@H]3C(=O)NCC(=O)N[C@H]3CSSC[C@H](NC(=O)[C@H](CCSC)NC(=O)[C@H](CC(C)C)NC(=O)[C@H](CCCNC(=N)N)NC(=O)CNC(=O)CNC(=O)[C@H](CC(=O)O)NC1=O)C(=O)NCC(=O)N[C@@H](CCC(=O)O)C(=O)N[C@@H]([C@@H](C)O)C(=O)N[C@H](C(=O)N[C@H](C(=O)NCC(=O)O)C(C)C)CSSC[C@H](NC(=O)[C@H]([C@@H](C)O)NC3=O)C(=O)N[C@@H](CO)C(=O)N[C@@H](Cc1c[nH]c3ccccc13)C(=O)N1CCC[C@H]1C(=O)N[C@@H](C(C)C)C(=O)N2
retention time (reversed-phase HPLC C18; acetonitrile gradient 5 to 51% over 36 min): 27 min

CC[C@H](C)[C@H](NC(=O)[C@H](CCCCN)NC(=O)[C@H](CCCCN)NC(=O)[C@@H](NC(=O)[C@@H](NC(=O)[C@H](CC(=O)O)NC(=O)[C@H](Cc1ccccc1)NC(=O)[C@H](CC(C)C)NC(=O)CN)[C@@H](C)CC)[C@@H](C)CC)C(=O)N[C@@H](C)C(=O)N[C@@H](CCC(=O)O)C(=O)N[C@@H](CO)C(=O)N[C@@H](Cc1ccccc1)C(N)=O
retention time (RP-HPLC C18; hydrophobicity): 23.93 ± 0.01 min
